Published values gathered from unrelated publications.
Values joined by “and” are separate records of one study, mostly repeats; a detail may differ. ± gives the spread as reported. Values after ≈ are worked out from the molar mass of the structure shown.

| SMILES | target or system | test | system | conditions | scale | measurement | value |
| --- | --- | --- | --- | --- | --- | --- | --- |
| CCCCc1oc2ccc(NS(C)(=O)=O)cc2c1C(=O)c1ccc(OCCCN(CCCC)CCCC)cc1 | human embryonic stem cell aggregates | mRNA level, microarray, item: ADORA1 | – | 0.5 µM, 120 h | relative to: untreated, up-regulated | fold change | 2 fold |
| NC(=O)NOCCCCCCCCCCCC[P+](c1ccccc1)(c1ccccc1)c1ccccc1.O=C([O-])C(F)(F)F | HCT-116 | cell growth, live-cell imaging | – | 4 µM, control at 90% confluence | – | cell confluence | 3.81 ± 0.66% |
| CN(C)CC(=O)N1CCC(c2ccc(NC(=O)c3nc(C#N)c[nH]3)c(C3=CCCCC3)c2)CC1 | hiPSC-derived cardiomyocytes (iCell) | impedance | – | concentration not given, 24 h | relative to: control | cell index | 102% |
| Cc1nn(-c2c(F)cccc2Br)c(C)c1C(=O)Nc1ccc2ccccc2n1 | Wnt-HEK293 | Wnt/β-catenin signalling, inhibitor, luciferase reporter | – | 1 µM | – | inhibition | > 70% |
| O=C(/C=C/C=C/C=C/C1CCCCC1)NC1=C[C@@](O)(/C=C/C=C/C=C/C(=O)NC2=C(O)CCC2=O)[C@@H]2O[C@@H]2C1=O | PK-1 | cell growth, CellTiter-Glo | – | 78 h | – | GI50 | 19900 nM |
| Cn1c(Nc2nc3ccc(C(F)(F)F)cc3s2)nc2cc(C(=O)NCCOCCO)ccc21 | SH-SY5Y | RNA-seq, item: PTGS1 mRNA | – | 5 µM, 5 h | relative to: untreated cells | fold change | 4.03 |
| CC(=O)NC[C@H]1CN(c2ccc(N3CCOCC3)c(F)c2)C(=O)O1 | Enterococcus faecalis | – | vancomycin-intermediate, 10 isolates | pH 5.5 | – | MIC50 | 2 µg/mL (≈ 5.93 µM) |
| Cc1cnc(NC2CCOCC2)nc1-n1cnc(C(=O)NC(CN)c2cc(F)cc(Cl)c2)c1 (stereo not shown) | Rec1 | flow cytometry | – | 1 µM, 24 h | – | G1 phase cells | 50.1% |
| COc1cnc2cccc(N3CCc4c(cc(Cn5ccnc5C)cc4-c4cn(C)nc4C(F)(F)F)C3=O)c2c1 | SU-DHL-4 | cell growth, inhibitor | – | 120 h | – | EC50 | 5710 nM |
| O=C(Nc1nnc2n3c(=S)[nH][nH]c3nc(-c3ccc(Cl)cc3)c1-2)c1ccccc1 | NCI-H322M | SRB | – | 10 µM, NCI60 single-dose screen | relative to: untreated | cell growth | 98.6% |
| Cc1cc(Nc2ncc(Cl)c(Nc3ccccc3S(=O)(=O)C(C)C)n2)c(OC(C)C)cc1C1CCNCC1 | CLB-GE | phosphoproteomics LC-MS/MS, item: PDCD11 phosphorylation | – | 200 nM, 60 min | relative to: untreated | log2 fold change | -1.64 |
| C=Cc1c2[n-]c(c1C)/C=c1\[n-]/c(c(C)c1C=C)=C\c1[n-]c(c(CCC(=O)O)c1C)/C=c1\[n-]c(c(C)c1CCC(=O)O)=C2.[Sn+4] | SH-SY5Y | RNA-seq, item: SLC12A8 mRNA | – | 5 µM, 5 h | relative to: untreated cells | fold change | 2.25 |
| NC(=O)NOCCCCCCCCCC[P+](c1ccccc1)(c1ccccc1)c1ccccc1.O=C([O-])C(F)(F)F | HCT-116 | cell growth, live-cell imaging | – | 1 µM, control at 90% confluence | – | cell confluence | 83.9% |
| CCN(CC)CCCC(C)Nc1ccnc2cc(Cl)ccc12 (stereo not shown) | hiPSC-derived cardiomyocytes | L-type calcium current, perforated patch clamp | – | 5 µM | relative to: initial current | relative peak current | 0.91 and 0.87 and 0.89 and 0.7 |
| C=Cc1c(C)c2cc3nc(c(CC(=O)O)c4[nH]c(cc5nc(cc1[nH]2)C(C)=C5CC)c(C)c4C(=O)O)[C@@H](CCC(=O)O)[C@@H]3C | 4T1 | Annexin V-FITC/PI flow cytometry | – | concentration not given | – | early apoptotic cells | 19.9% and 19.8% and 24.3% |
| CCn1cc(-c2cc(Cn3ccnc3)cc3c2CCN([C@H](c2cc(OC)ccn2)C2CC2)C3=O)c(C(F)(F)F)n1 | Rec1 | cell growth, inhibitor | – | 120 h | – | EC50 | 6470 nM |
| NC(=O)NOCCCCCCCCCCCCCCCC[P+](c1ccccc1)(c1ccccc1)c1ccccc1.O=C([O-])C(F)(F)F | HCT-116 | cell growth, live-cell imaging | – | 0.4 µM, control at 90% confluence | – | cell confluence | 71.1% |
| Nc1cccc2c1C(=O)N(C1CCC(=O)NC1=O)C2=O (stereo not shown) | MM1.S | XTT | – | 0.6 µM | relative to: untreated | viability | 39% |
| COc1ccc(-n2nc(C(C)=O)s/c2=N\N=C(/C)c2ccc(NC(=O)c3ccc(Cl)cc3)cc2)cc1 | HepG2 | – | – | 0.156 µM | – | viability | 24.9% |
| CCn1cc(-c2cc(Cn3ccoc3=N)cc3c2CCN([C@@H](C)c2cc(OC)ccn2)C3=O)c(C(F)(F)F)n1 | ASPC1 | cell growth, inhibitor | – | 120 h | – | EC50 | 8.26 nM |
| c1coc(-c2n[nH]cc2-c2ccnc3ccccc23)c1 | orf19.4575 Candida albicans | kinase binding, MIB/MS competition | Candida albicans lysate | 1 µM | relative to: DMSO | log2 fold change | -0.26 |
| CCCCN1C[C@H](O)[C@@H](O)[C@@H](O)[C@H]1CO | sample F patient fibroblasts | Gb3 level lowering, LC-MS/MS, item: Gb3 d18:1/22:0 | – | 216 h | – | IC50 | 10400 nM |
| CC(C)C[C@H](NC(=O)C[C@H](O)[C@H](CC(C)C)NC(=O)[C@H](Cc1c[nH]cn1)NC(=O)CNC(=O)[C@@H](NC(=O)[C@H](C)NC(=O)[C@H](Cc1c[nH]c2ccccc12)NC(=O)[C@H](CCC(N)=O)NC(=O)[C@@H](Cc1ccccc1)NC(=O)COCCOCCNC(=O)CCC(C(=O)O)N1CCN(CC(=O)O)CCN(CC(=O)O)CCN(CC(=O)O)CC1)C(C)C)C(N)=O (stereo partly shown) [lutetium-177 labelled] | – | – | BALB/c nu/nu mice, female, heart | intravenous, 100 pmol, 30 min, time course 0.5 h, together with: PA 300 µg | – | tissue uptake | 0.8 ± 0.2 %ID/g |

| SMILES | target or system | test | system | conditions | scale | measurement | value |
| --- | --- | --- | --- | --- | --- | --- | --- |
| CCN(Cc1cccnc1)c1ccc(CO)c(Cl)c1 | RBE | cell viability, CellTiter-Glo | – | – | – | IC50 | 370 nM |
| C=CCn1c(=O)c2cnc(Nc3ccc(N4CCN(C)CC4)cc3)nc2n1-c1ccc2c(n1)[C@@](O)(CC)CC2 | NCI-H1048 | flow cytometry, item: pHH3+γH2Ax+ | – | concentration not given | – | G2/M cells in subpopulation | 5.1% |
| OC(CCN1CCCCC1)(c1ccccc1)C1CC2C=CC1C2 (stereo not shown) | – | resting-state EEG | healthy elderly humans | oral, 4 mg, eyes closed, LS mean | relative to: baseline | change in EEG Beta3-power Pz-O1 | 6.3% |
| CC/C(=N\NC(=O)NCc1cccc(O)c1)c1ccc(O)c(C)c1O | SK-OV-3 | Western blot | – | 10 µM, 24 h, 3D gellan gum culture, unit not given | relative to: DMSO | LATS band intensity | 1 ± 0.24 |
| CC(C)NCC(O)c1ccc(O)c(O)c1 (stereo not shown) | mouse ventricular cardiomyocytes | – | – | dose not given, 0.387 s | – | sarcomere length | 1.8 µm |
| CCN(Cc1ccccc1Cl)c1ccc(CO)c(Cl)c1 | RBE | cell viability, CellTiter-Glo | – | – | – | IC50 | 230 nM |
| CSCC[C@H](NC(=O)[C@H](Cc1ccc(OS(=O)(=O)O)cc1)NC(=O)[C@@H](N)CC(=O)O)C(=O)NCC(=O)N[C@@H](Cc1c[nH]c2ccccc12)C(=O)N[C@@H](CCSC)C(=O)N[C@@H](CC(=O)O)C(=O)N[C@@H](Cc1ccccc1)C(N)=O | HEK293T control virus | agonist, GloSensor cAMP | – | 10000 nM, no receptor expressed | higher = more cAMP | cAMP accumulation | 0.183 a.u. |
| OCc1ccc(-c2nn(CC3CCCCC3)c3ccccc23)o1 | RBE | cell viability, CellTiter-Glo | – | – | – | IC50 | 16300 nM |
| COc1c(Cl)cc2c([nH]c3cnccc32)c1NC(=O)c1cccnc1C | hiPSC-derived cardiomyocytes (iCell) | impedance (xCELLigence Cardio) | – | concentration not given, 2 h | relative to: control | beat rate | 102% |
| Cn1cc(-c2ccc(-c3cncc(Cl)c3N3CCC4(CCNC4=O)CC3)cc2)cn1 | COLO 205 | gene expression, microarray, item: MKI67 mRNA | – | concentration not given, 2 h | relative to: untreated cells | log2 fold change | -2.7 |
| OCc1ccc(-c2nn(Cc3cccc(Cl)c3)c3ccccc23)o1 | RBE | cell viability, CellTiter-Glo | – | – | – | IC50 | 1410 nM |
| COc1nc(NCc2cn(-c3ccc(C(=O)Nc4ccccc4)cc3)nn2)nc(OC)n1 | HCT-116 | annexin V-FITC/PI | – | IC50, 24 h | – | apoptotic cells Late | 11.7% |
| C[C@H](Nc1ccc2c(c1)OCCn1cc(N3C(=O)OC[C@H]3C(F)F)nc1-2)C(N)=O | IM95 | cell growth, CellTiter-Glo | – | 120 h | – | Hill coefficient GR curve | 0.501 |
| Cn1cc(Nc2nccc(-c3ccc4c(c3)CN(C3COC3)CC[C@H]4NC(=O)c3cn(C(C)(C)C)nn3)n2)cn1 | human B cells | – | – | 100 nM, 64 h, non-stimulation-regulated genes, together with: CD40L, anti-IgM, IL-4 | – | number of downregulated genes | 70 |
| Cc1cccc(Cn2nc(-c3ccc(CO)o3)c3ccccc32)c1 | RBE | cell viability, CellTiter-Glo | – | – | – | IC50 | 2510 nM |
| C[C@H](CCC(=O)NCCS(=O)(=O)O)[C@H]1CC[C@H]2[C@@H]3CC[C@@H]4C[C@H](O)CC[C@]4(C)[C@H]3CC[C@]12C | human PKD renal epithelial cells | cell counting | – | 20 µM, 48 h | relative to: untreated | proliferation increase | 49% |
| CN[C@H](CC(C)C)C(=O)N[C@H]1C(=O)N[C@@H](CC(N)=O)C(=O)N[C@H]2C(=O)N[C@H]3C(=O)N[C@H](C(=O)N[C@H](C(=O)O)c4cc(O)cc(O)c4-c4cc3ccc4O)[C@H](O)c3ccc(c(Cl)c3)Oc3cc2cc(c3O[C@@H]2O[C@H](CO)[C@@H](O)[C@H](O)[C@H]2O[C@H]2C[C@](C)(N)[C@H](O)[C@H](C)O2)Oc2ccc(cc2Cl)[C@H]1O | Enterococcus faecalis | – | compound-intermediate | pH 5.5 | – | MIC50 | 1 µg/mL (≈ 0.69 µM) |
| Nc1ncnc2c1ncn2[C@@H]1O[C@H](CO)[C@@H](O)[C@H]1O | activated human T cells | item: ATP | – | 30 µM | relative to: DMSO | log2 fold change | 1.1 and 1.3 and 1.2 |
| NC(=O)NOCCCCCCCCCCCCCCCCCCCC[P+](c1ccccc1)(c1ccccc1)c1ccccc1.O=C([O-])C(F)(F)F | HCT-116 | cell growth, live-cell imaging | – | 0.15 µM, control at 90% confluence | – | cell confluence | 86.6 ± 3.59% |
| Cc1[nH]nc2ccc(-c3cncc(OC[C@@H](N)Cc4ccccc4)c3)cc12 | hiPSC-derived cardiomyocytes (iCell) | impedance (xCELLigence Cardio) | – | concentration not given, 2 h | relative to: control | beat amplitude | 144% |
| Cc1cccc(-c2[nH]c(CNc3ccccc3F)nc2-c2ccc3ncnn3c2)n1 | CD8+ T cells from myeloma patient | ELISA | human | 0.5 µM, 192 h | – | IFN-gamma production | 1.07% and 1.1% and 1.31% and 1.04% and 1.33% and 1.25% |
| N#Cc1c(Oc2ccc(F)c(NC(=O)Cc3cccc(C(F)(F)F)c3)c2)ccc2nc(NC(=O)C3CC3)sc12 | SK-MEL-239 | ERK phosphorylation, inhibitor, Western blot, item: p-ERK/total ERK | – | 1 h | – | IC75 | 427 nM |
| CC(=O)N(C)[C@H]1CCN(C(=O)c2cnc3c(c2)C[C@](C)(c2ccc(F)cc2)N3)C1 | vanin activity | item: creatinine-normalised pantetheine | human, urine | 30 mg, 144 h after first dose, median | relative to: baseline | urinary pantetheine | 1590% |

For quick reference, copied from above:
| SMILES | target or system | test | system | conditions | scale | measurement | value |
| --- | --- | --- | --- | --- | --- | --- | --- |
| Cc1nn(-c2c(F)cccc2Br)c(C)c1C(=O)Nc1ccc2ccccc2n1 | Wnt-HEK293 | Wnt/β-catenin signalling, inhibitor, luciferase reporter | – | 1 µM | – | inhibition | > 70% |
| O=C(/C=C/C=C/C=C/C1CCCCC1)NC1=C[C@@](O)(/C=C/C=C/C=C/C(=O)NC2=C(O)CCC2=O)[C@@H]2O[C@@H]2C1=O | PK-1 | cell growth, CellTiter-Glo | – | 78 h | – | GI50 | 19900 nM |
| Cn1c(Nc2nc3ccc(C(F)(F)F)cc3s2)nc2cc(C(=O)NCCOCCO)ccc21 | SH-SY5Y | RNA-seq, item: PTGS1 mRNA | – | 5 µM, 5 h | relative to: untreated cells | fold change | 4.03 |
